Published values from different studies.
A part holds a random share of what one study measured.

Study 1
Target: Ras GTPase-activating protein-binding protein 1, RRM domain (G3BP1, Homo sapiens, UniProt Q13283)
UniProt Q13283, sequence (whole entry, looked up): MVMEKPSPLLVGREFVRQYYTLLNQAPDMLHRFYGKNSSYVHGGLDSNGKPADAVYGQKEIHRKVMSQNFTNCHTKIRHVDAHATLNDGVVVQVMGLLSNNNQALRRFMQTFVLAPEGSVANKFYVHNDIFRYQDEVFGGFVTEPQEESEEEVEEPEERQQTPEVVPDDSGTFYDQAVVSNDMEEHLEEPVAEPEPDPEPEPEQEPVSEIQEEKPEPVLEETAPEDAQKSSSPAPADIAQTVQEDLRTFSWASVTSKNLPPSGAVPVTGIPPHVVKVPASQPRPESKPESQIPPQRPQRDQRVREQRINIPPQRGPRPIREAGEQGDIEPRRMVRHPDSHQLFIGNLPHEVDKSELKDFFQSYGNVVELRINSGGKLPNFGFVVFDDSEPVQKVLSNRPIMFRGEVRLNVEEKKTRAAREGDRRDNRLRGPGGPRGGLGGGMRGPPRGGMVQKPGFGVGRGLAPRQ
Technique: RNA Bind-n-Seq
Form: RNA
Matrix: in vitro
Concentration: 1 µM
Setting: whole 134-nt RNA, ends assumed
Together with: 150 mM KCl
Reference: input library
Reading: higher = stronger binding
Sequence | log2 enrichment
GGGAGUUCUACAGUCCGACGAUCUGGGAGGUGGAUUUUGUUUAUUUUUUUAGCUCAUUUCCAGGGGAGGGAAUUUUUUUUUAAUAUGUGUCAUGAAUAAAGUUGUUUUUGAAAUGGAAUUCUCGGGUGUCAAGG | 1.42
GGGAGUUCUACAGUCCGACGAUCGGAUUGGUAGCUUAUGUCGAUCUUGAUGAAAGAGCAAUUGAUGCUCUCAGGGAAUUUAAUGAAGAAGGAGCUCUGUCUGUACUACAGCAGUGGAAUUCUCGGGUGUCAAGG | -0.261
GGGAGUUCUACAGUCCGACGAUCACCAUGCAGGUGGGCAUCUUUGGGAAGUGGGGCAAGGGGGGGAUAGGGAGGGGGGUAACACUUUGGGAACAGGCGGUCCCAGGUCGUUUCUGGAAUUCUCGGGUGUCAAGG | 0.928
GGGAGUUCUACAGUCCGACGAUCGUCAAGUGCUUCUGCUCCUGAUGUGGAUGACCCAGAGGCAUUCCCAGCUCUGGCUUAACUGGAUGCCAUAAGACAACCCUGGUUCCUUUGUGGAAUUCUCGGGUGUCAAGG | -0.0515
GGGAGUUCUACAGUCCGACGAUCAAGUCCUGUGCUACACAUCGUAUGUACCGAAUCGGGAAAGGGGAAAGGGGAAAGGGAAAGUAUUAUGUUACGCCGUUCGGAUCUGCACUUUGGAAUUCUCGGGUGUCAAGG | 0.498
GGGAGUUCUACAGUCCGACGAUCUAACUUUAGAGGAGGAUCUGAUUGAUAUGGCAGUGGACGUGGAUUUGGGGAUGGCUAUAAUGGGUAUGGAGGAGGACCUGGAGGUGGCAAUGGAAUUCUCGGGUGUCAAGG | -0.768
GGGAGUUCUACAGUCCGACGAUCCCUGUGCUACACAUCGUAUGUACCGAAUCGGGGAAAAAGGGGAAAAAAAGGGGAAAGGGGAAAGUAUUAUGUUACGCCGUUCGGAUCUGCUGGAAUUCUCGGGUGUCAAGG | 0.586
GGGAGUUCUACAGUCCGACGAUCGCAGUAAGUAAAAACAAAUGGAAAUGCUUCGGAUAGUGGCAGGGGUGGGGGUUGCUAAGGAAAGGGUGGGAUGGGAGUGGGUAAAGAGUUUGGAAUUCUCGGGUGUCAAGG | 1.16
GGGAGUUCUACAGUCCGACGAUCUAACUUUAGAGGAGGAUCUGAUGGAUAUGACAGUGGACGUGGAUUUGGGGAUGGCUAUAAUGGGUAUGGAGGAGGACCUGGAGGUGGCAAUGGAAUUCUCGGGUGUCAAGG | -0.836

Study 2
Target: Max dimerization protein 1, bHLH-zipper, MAX partner unstated (MXD1, Homo sapiens, UniProt Q05195, residues 56-136)
Technique: protein-binding microarray
Form: double-stranded DNA, one strand shown
Matrix: in vitro
Concentration: not given
Setting: k-mer, scored over probes, only values ≥0.25
Reading: higher = stronger binding
Residues (chain): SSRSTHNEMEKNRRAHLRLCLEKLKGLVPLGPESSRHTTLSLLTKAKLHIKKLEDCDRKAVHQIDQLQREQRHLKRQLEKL
Sequence | E-score
GCCCGCCC | 0.314
ATGCGGGC | 0.31
CCAGGCGG | 0.263
CTCGTGTA | 0.427
ATGTGATG | 0.263
CGCGTGTC | 0.437
CGTGACCA | 0.298
GCTCCCCA | 0.268
GCGTGCTA | 0.348
ACATGTGA | 0.462
AAGGCGTG | 0.296
TGTGTCAA | 0.275
CCACATGG | 0.477
GCGTGGAC | 0.377

Study 3
Target: Histone acetyltransferase KAT6A, winged helix 1, GST fusion (KAT6A, Homo sapiens, UniProt Q92794, residues 1-85)
Technique: protein binding microarray
Form: double-stranded DNA, one strand shown
Matrix: in vitro
Concentration: not given
Setting: 8-mer, flanks averaged, mean of 2 arrays, mostly near background
Reference: not given
Reading: higher = stronger binding
Target sequence (chain): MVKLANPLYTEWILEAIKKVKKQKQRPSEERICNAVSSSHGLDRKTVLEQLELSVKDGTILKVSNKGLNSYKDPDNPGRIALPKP
Sequence | E-score
TGAGGTAA | -0.178
ATTCTTTC | -0.108
CATCAATC | -0.0455
CCCGCTCA | 0.305
CATCATGG | -0.103
AACTTGAC | -0.265
GAGTACCC | 0.155
TATCTGAA | -0.183
AAAGGGGA | -0.00503
AACATTTA | 0.0337
CGTCATAA | -0.065
ACAAAGAA | -0.191
AGATTTCC | -0.0466
GCTTCCCA | 0.0751
AGTTTAAG | -0.214
AAGAAAAT | -0.165
TACAATCA | -0.0388
TCCTCCGA | -0.0305
CCATGGCC | -0.00793
GGCTGGAC | 0.0486
CTCCCTGA | -0.183
CGGCCGAC | 0.423
ACCAGCTA | -0.309
AAATTCTA | -0.18
TCAAACCA | -0.0536

Study 4
Target: UBE2I UBC core domain (UniProt P63279)
Technique: yeast two-hybrid
Matrix: yeast
Setting: mostly zero background
Reference: not given
Reading: higher = stronger interaction
B1: TRIM5 RING domain (UniProt Q9C035); chain ILVNVKEEVTCPICLELLTQPLSLDCGHSFCQACLTANHKKSMLDKGESSCPVCRISYQPENIRP
B2: TRIM5 RING domain (UniProt Q9C035); chain LREVKLSPEGQKVDHCARHGEKLLLFCQEDGKVICWLCERSQEHRGHHTFLTEEVAREYQVKL
B3: VPS41 RING domain (UniProt P49754); chain KGVLVDEENICESCLSPILPSDAAKPFSVVVFHCRHMFHKECLPMPSMNSAAQFCNICSAKNRGPGSAI
B4: MKRN1 RING domain (UniProt Q9UHC7); chain FAVQRSKDMVCGICMEVVYEKANPSERRFGILSNCNHTYCLKCIRKWRSAKQFESKIIKSCPECRITSNFVIPSE
B5: NEURL1 RING domain (UniProt O76050); chain VTPGLGQWSDECTICYEHAVDTVIYTCGHMCLCYACGLRLKKALHACCPICRRPIKDIIKT
B6: SH3RF2 RING domain (UniProt Q8TEC5); chain DDLTLLDLLECPVCFEKLDVTAKVLPCQHTFCKPCLQRVFKAHKELRCPECRTPVFSNIEAL
B7: TRIML1 RING domain (UniProt Q8N9V2); chain LMENLREELTCFICLDYFSSPVTTECGHSFCLVCLLRSWEEHNTPLSCPECWRTLEGPHFQS
B8: TRIM43 RING domain (UniProt Q96BQ3); chain FSHAFQKELTCVICLNYLVDPVTICCGHSFCRPCLCLSWEEAQSPANCPACREPSPKMDFKT
Sequence | lacZ reporter activity
B1 (TRIM5 RING domain) | 0
B2 (TRIM5 RING domain) | 0
B3 (VPS41 RING domain) | 0
PAELEVQASECVVCLEREAQMIFLNCGHVCCCQQCCQPLRTCPLCRQDIAQRLRIY (LRSAM1 RING domain (UniProt Q6UWE0)) | 0
B4 (MKRN1 RING domain) | 0
B5 (NEURL1 RING domain) | 0
B6 (SH3RF2 RING domain) | 0
B7 (TRIML1 RING domain) | 0
FQGDVDEDLICPICSGVLEEPVQAPHCEHAFCNACITQWFSQQQTCPVDRSVVTVAHLRP (RNF41 RING domain (UniProt Q9H4P4)) | 0
B8 (TRIM43 RING domain) | 0
QVDKAVFHMQSVKCLKCQEQKRAVLPCQHAALCELCAEGSECPICQPGRAHTLQS (UNK RING domain (UniProt Q9C0B0)) | 0

Study 5
Target: Prothrombin, mature alpha-thrombin (F2, Homo sapiens, UniProt P00734)
Technique: aptamer microarray, sandwich
Form: DNA with 2'F-ANA
Matrix: in vitro
Concentration: 200 nM
Setting: whole 15-mer aptamer, many near background
Together with: Cy3 exosite-II aptamer, 400 nM
Reading: higher = stronger binding
Sequence: GGTTGGTGTGGTTGG
Modification | mean fluorescence intensity [a.u.]
2'F-ANA at 5 8 10 12 15 | 46.5
2'F-ANA at 2 3 5 6 8 12 | 247
2'F-ANA at 2 5 8 10 11 12 13 14 | 44.8
2'F-ANA at 1 5 8 10 11 15 | 48.6
2'F-ANA at 1 3 4 5 6 8 9 12 14 | 50.6
2'F-ANA at 2 10 12 | 197
2'F-ANA at 2 3 5 8 9 10 11 15 | 59
2'F-ANA at 5 6 9 10 12 | 51.1
2'F-ANA at 2 3 4 8 11 15 | 532
2'F-ANA at 3 4 5 8 9 10 11 | 64.7
2'F-ANA at 3 4 5 6 9 11 12 13 14 | 52.4
2'F-ANA at 1 3 4 5 6 8 9 10 11 13 | 44.5
2'F-ANA at 1 2 3 7 9 14 | 75.7
2'F-ANA at 1 2 3 6 8 9 10 11 12 13 15 | 92
2'F-ANA at 1 2 5 6 9 11 13 15 | 67.3
2'F-ANA at 1 2 3 5 9 11 12 14 15 | 83.6
2'F-ANA at 1 10 12 15 | 78.9
2'F-ANA at 1 2 7 11 12 13 14 | 60.1
2'F-ANA at 2 6 7 8 9 11 13 | 327
2'F-ANA at 2 3 4 7 8 9 10 11 12 13 15 | 224
2'F-ANA at 3 4 5 6 7 10 12 13 | 49.6
2'F-ANA at 2 3 5 10 11 12 13 15 | 58.2

Study 6
Target: Sal-like protein 4, full length isoform A (SALL4, Homo sapiens, UniProt Q9UJQ4, residues 1-1053)
UniProt Q9UJQ4, sequence (whole entry, looked up): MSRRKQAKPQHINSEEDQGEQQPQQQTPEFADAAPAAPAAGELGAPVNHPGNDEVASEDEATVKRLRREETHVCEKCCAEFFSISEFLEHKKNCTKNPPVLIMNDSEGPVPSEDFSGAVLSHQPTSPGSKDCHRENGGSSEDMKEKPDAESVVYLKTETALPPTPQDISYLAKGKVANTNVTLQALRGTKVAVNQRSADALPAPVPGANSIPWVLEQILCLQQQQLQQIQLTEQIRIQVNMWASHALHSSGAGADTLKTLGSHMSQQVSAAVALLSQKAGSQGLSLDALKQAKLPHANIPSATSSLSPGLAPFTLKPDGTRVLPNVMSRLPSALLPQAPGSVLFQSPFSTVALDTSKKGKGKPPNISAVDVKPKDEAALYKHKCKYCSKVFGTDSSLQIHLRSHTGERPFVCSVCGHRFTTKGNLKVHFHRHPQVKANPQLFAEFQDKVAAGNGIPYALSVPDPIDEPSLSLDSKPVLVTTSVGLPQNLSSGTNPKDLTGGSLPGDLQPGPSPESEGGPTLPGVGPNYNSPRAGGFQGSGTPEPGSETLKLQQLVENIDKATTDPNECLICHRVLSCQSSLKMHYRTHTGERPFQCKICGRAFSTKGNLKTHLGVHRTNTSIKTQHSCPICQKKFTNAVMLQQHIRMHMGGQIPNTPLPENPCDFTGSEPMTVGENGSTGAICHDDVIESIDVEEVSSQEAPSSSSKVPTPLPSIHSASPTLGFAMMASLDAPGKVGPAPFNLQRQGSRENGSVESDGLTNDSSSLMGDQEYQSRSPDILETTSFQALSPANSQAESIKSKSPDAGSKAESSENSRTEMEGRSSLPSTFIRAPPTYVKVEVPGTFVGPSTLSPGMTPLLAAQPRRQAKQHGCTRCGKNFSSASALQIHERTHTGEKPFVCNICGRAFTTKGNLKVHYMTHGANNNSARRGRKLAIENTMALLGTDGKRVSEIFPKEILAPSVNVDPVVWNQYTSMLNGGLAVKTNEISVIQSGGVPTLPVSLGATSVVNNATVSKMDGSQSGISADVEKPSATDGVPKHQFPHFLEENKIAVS
Technique: universal PBM
Form: double-stranded DNA, one strand shown
Matrix: in vitro
Concentration: 600 nM
Setting: 8-mer, flanks averaged, mean of replicates
Reading: higher = stronger binding
Sequence | E-score
AGAGAGCT | -0.081
TCAGGCAA | -0.0645
CCCGCGAG | -0.215
ACTGAAAT | 0.26
AGACCGTG | -0.245
ACCTTAAT | 0.25
AGAACGAA | 0.0958
GGACAACC | -0.283
TGTCCCAA | -0.0326
ATCTCCAG | -0.0182
AGCTATAG | 0.129
ATTTATTG | 0.344
GAATGACA | 0.153
GGAGCCAA | -0.107
CTGTTACC | -0.0383
ACAATCGC | 0.0328

For quick reference, copied from above (study 4):
Sequence | lacZ reporter activity
B1 (TRIM5 RING domain) | 0
B2 (TRIM5 RING domain) | 0
B3 (VPS41 RING domain) | 0
PAELEVQASECVVCLEREAQMIFLNCGHVCCCQQCCQPLRTCPLCRQDIAQRLRIY (LRSAM1 RING domain (UniProt Q6UWE0)) | 0
B4 (MKRN1 RING domain) | 0
B5 (NEURL1 RING domain) | 0
B6 (SH3RF2 RING domain) | 0
B7 (TRIML1 RING domain) | 0
FQGDVDEDLICPICSGVLEEPVQAPHCEHAFCNACITQWFSQQQTCPVDRSVVTVAHLRP (RNF41 RING domain (UniProt Q9H4P4)) | 0
B8 (TRIM43 RING domain) | 0
QVDKAVFHMQSVKCLKCQEQKRAVLPCQHAALCELCAEGSECPICQPGRAHTLQS (UNK RING domain (UniProt Q9C0B0)) | 0
